# Published values pooled from the literature.
# Each numbered part is a random draw from the data of one study; scales do not carry over between parts.
# UniProt P62837, sequence (whole entry, looked up): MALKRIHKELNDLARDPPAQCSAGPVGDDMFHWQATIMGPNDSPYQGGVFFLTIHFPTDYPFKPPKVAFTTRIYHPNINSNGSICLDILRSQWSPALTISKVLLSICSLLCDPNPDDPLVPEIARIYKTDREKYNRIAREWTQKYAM

# Series 1 — technique: RNA Bind-n-Seq; molecule type: RNA; matrix: in vitro; concentration: 90 pmol; notes: 4-mer, random 30-nt RNA, single round; with: 3 µM DMDA-PatA, 2 mM ADP, 2 mM phosphate; baseline: input library; reading: higher = stronger binding
# Target: ATP-dependent RNA helicase DDX3X, helicase core (DDX3X, Homo sapiens, UniProt O00571, residues 132-607)
# UniProt O00571, sequence (132-607, looked up): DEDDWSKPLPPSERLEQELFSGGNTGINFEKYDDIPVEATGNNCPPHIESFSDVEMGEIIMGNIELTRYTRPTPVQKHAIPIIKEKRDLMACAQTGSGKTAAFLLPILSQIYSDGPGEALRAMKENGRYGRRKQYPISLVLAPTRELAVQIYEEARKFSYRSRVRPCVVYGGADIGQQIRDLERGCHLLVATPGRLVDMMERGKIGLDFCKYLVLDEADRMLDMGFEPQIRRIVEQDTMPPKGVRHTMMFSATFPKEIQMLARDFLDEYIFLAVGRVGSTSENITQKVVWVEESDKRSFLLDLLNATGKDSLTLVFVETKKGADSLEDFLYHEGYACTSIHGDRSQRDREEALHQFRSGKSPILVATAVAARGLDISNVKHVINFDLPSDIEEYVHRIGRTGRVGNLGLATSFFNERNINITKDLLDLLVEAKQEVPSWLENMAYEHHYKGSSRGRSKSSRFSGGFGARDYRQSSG
Oligonucleotide,4-mer enrichment [fold]
AUGG,0.953
AUAC,0.904
GCCA,0.92
CGCU,0.806
CUCA,0.909
AAUA,1.09
GGCA,0.999
AGGA,1.22

# Series 2 — technique: two-hybrid; baseline: out of 4 tests; reading: higher = firmer interaction
# Partner: ARF14 497-605 (Arabidopsis thaliana, UniProt Q9LQE8)
# B1: IAA26 (Arabidopsis thaliana, UniProt Q8LAL2); chain MEGCPRNREIGPKLLDLIPQGRKWYQEDKNNTDQEKKLELRLGPPGGDEEDHSAIKKKNTEIRNIKKETEDKSFHCFNGNHFSPSNKTTSVPHISQKRTAPGPVVGWPPVRSFRKNLASTSSSKLGNESSHGGQINKSDDGEKQVETKKEGMFVKINMDGVPIGRKVDLNAYNSYEQLSFVVDKLFRGLLAAQRDISDGQGEEKPIIGLLDGKGEFTLTYEDNEGDKMLVGDVPWQMFVSSVKRLRVIKSSEISSALTFGCSKQEKMMH
# B2: ARF13 (Arabidopsis thaliana, UniProt Q9FX25); chain MENNGEMNAQPELSVDITKTYMYEKLWNICAGPLCVLPKPGEKVYYFPQGHIELIENSTRDELDHIRPIFDLPSKLRCRVVAIDRKVDKNTDEVYAQISLMPDTTEVMTHNTTMDTRRPIVYFFSKILTASDVSLSGGLIIPKQYAIECFPPLDMSQPISTQNLVAKDLYGQEWSFKHVFRGTPQRHMFTSGGGWSVFATTKRLIVGDIFVLLRGENGELRFGIRRAKHQQGHIPSSVISANCMQHGVIASVVNAFKTKCMFNVVYKPSSSQFVISYDKFVDAMNNNYIVGSRFRMQFEGKDFSEKRYDGTIIGVNDMSPHWKDSEWRSLKVQWDELSPFLRPNQVSPWDIEHLIPSSDISQSSLKKKKHWLQLNEIGATLSNLWTCQEIGQRSMNSPISVPEFSYPNAIEDSKFLSGLLLNHSLLAIPNENYNSDQMIQPRKEDITTEATTSCLLFGVDLTKVSKSKDSICPIESCKKSLPQDKKFDQTQPLRSPKEVQSTEFNFTRSRIKVHMQGVAISRAVDLTAMHGYNQLIQKLEELFDLKDELRTRNQWEIVFTNNEGAEMLVGDDPWPEFCNMAKRIFICSKEEIKKMKLKNKFFQPESKALTSSDVPPNVTDN
# B3: ARF5 788-902 (Arabidopsis thaliana, UniProt P93024); chain ATPRVRTYTKVQKTGSVGRSIDVTSFKDYEELKSAIECMFGLEGLLTHPQSSGWKLVYVDYESDVLLVGDDPWEEFVGCVRCIRILSPTEVQQMSEEGMKLLNSAGINDLKTSVS
# B4: IAA29 (Arabidopsis thaliana, UniProt Q93WC4); chain MELDLGLSLSPHKSSKLGFNFDLNKHCAIEGAASCLGTEKLRFEATFGLGNVEENCYMPKQRLFALNGQPNEEDEDPLESESSIVYDDEEENSEVVGWPPVKTCMIKYGSYHHRHIRNHHHCPYHHRGRRITAMNNNISNPTTATVGSSSSSSISSRSSMYVKVKMDGVAIARKVDIKLFNSYESLTNSLITMFTEYEDCDREDTNYTFTFQGKEGDWLLRGDVTWKIFAESVHRISIIRDRPCAYTRCLF
# B5: IAA33 (Arabidopsis thaliana, UniProt Q9FKM7); chain MNSFEPQSQDSLQRRFHQDNSTTQQPRDTTTPFIPKPASKNHNNSNSSSGAAGRSFQGFGLNVEDDLVSSVVPPVTVVLEGRSICQRISLDKHGSYQSLASALRQMFVDGADSTDDLDLSNAIPGHLIAYEDMENDLLLAGDLTWKDFVRVAKRIRILPVKGNTRQVKRNE
# B6: ARF12 500-593 (Arabidopsis thaliana, UniProt Q9XID4); chain TEIQNKQFSSSRTCTKVQMQGVTIGRAVDLSVLNGYDQLILELEKLFDIKGQLQTRNQWEIAFTDSDEDKMLVGDDPWPEFCNMVKKIFIQKRR
# B7: ARF6 790-935 (Arabidopsis thaliana, UniProt Q9ZTX8); chain SENPQSNTFVKVYKSGSFGRSLDISKFSSYHELRSELARMFGLEGQLEDPVRSGWQLVFVDRENDVLLLGDDPWPEFVSSVWCIKILSPQEVQQMGKRGLELLNSAPSSNNVDKLPSNGNCDDFGNRSDPRNLGNGIASVGGSFNY
# Residues (chain): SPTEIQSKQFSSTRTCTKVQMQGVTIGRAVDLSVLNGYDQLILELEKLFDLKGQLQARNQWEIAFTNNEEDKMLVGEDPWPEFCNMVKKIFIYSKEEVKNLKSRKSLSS
Molecule,positive tests
B1 (IAA26),0
B2 (ARF13),0
B3 (ARF5 788-902),0
B4 (IAA29),0
B5 (IAA33),0
B6 (ARF12 500-593),1
B7 (ARF6 790-935),0

# Series 3 — technique: protein-binding microarray; molecule type: double-stranded DNA, one strand shown; matrix: in vitro; concentration: 2200 nM top; notes: 60-bp whole probe; with: salmon DNA 0.4 mg/ml; baseline: random background probes; reading: higher = stronger binding; shared flanks, not repeated: GCCTAGCAC … GTCTTGATTCGCTTGACGCTGCTG
# Target: Interferon regulatory factor 7, full length, phosphomimetic (IRF7, Homo sapiens, UniProt Q92985, residues 1-503, S471D/S472D/S475D/S476D/S477D/S483D/S484D/S487D)
# Construct (chain): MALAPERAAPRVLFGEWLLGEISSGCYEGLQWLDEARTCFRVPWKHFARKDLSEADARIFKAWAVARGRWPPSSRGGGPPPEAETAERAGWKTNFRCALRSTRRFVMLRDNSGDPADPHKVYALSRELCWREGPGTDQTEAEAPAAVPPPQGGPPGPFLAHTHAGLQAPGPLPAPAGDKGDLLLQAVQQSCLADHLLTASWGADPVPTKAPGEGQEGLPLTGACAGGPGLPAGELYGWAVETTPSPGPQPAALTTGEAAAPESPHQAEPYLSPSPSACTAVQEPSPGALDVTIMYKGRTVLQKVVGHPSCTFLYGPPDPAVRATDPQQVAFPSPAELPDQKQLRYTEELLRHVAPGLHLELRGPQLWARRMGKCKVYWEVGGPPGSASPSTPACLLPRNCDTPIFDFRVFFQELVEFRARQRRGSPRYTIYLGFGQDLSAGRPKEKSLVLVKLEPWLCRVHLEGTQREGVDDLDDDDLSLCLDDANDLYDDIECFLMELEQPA
Oligonucleotide,fitted relative affinity [z-score]
TTAGAACTGGGGCCTGGATTAGTGCTA,-0.672
GACGATTTCGGGACCGGAGACGTGCTA,1.35
GACGGTTTCCTAATGCTGACGTGCTAG,2.02
GACGGTATCGGATATCGGGACGTGCTA,0.0462
TTAGGACTGGGTCTCGGATAGTGCTAG,-0.404
TTAGGTATCGGTTTCGATTAGTGCTAG,5.8
CTTGGCAAGATGAGGAAGATGTGCTAG,-0.822
GACGAACAGAGACTGGAGACGTGCTAG,-0.348

# Single results of other studies
Molecule,target,assay,system,setting,how to read,quantity,value
KLRKLKEAMLCMVCCEEEINSTFCPCGHTVCCESCAAQLQSCPVCRSRVEHVQHVY (MYLIP RING domain (UniProt Q8WY64)),UBE2D2 UBC core domain (UniProt P62837),yeast two-hybrid,yeast,mostly zero background,"baseline: not given, higher = stronger interaction",lacZ reporter activity,0

# For quick reference, copied from above (series 2):
Molecule,positive tests
B5 (IAA33),0
B4 (IAA29),0
